{"data": "Assay results from different studies", "note": "Compare with care: the assays were run in different laboratories. Values joined by “and” are separate records of one study, mostly repeats; a detail may differ. ± gives the spread as reported."}
{"Structure (SMILES)": "CCOc1ccc(N(C)S(=O)(=O)c2ccsc2C(=O)Nc2cccc(C(=O)O)c2)cc1", "target or system": "CCF-STTG1", "test": "ABCA1 promoter reporter", "setting": "concentration not given", "measurement": "activity", "value": "inactive"}
{"Structure (SMILES)": "COc1cnc2cccc(N3CCc4c(cc(Cn5ccnc5C)cc4-c4cn(C)nc4C(F)(F)F)C3=O)c2c1", "target or system": "SBC-5", "test": "cell growth, inhibitor", "setting": "120 h", "measurement": "EC50", "value": "2.35 µM"}
{"Structure (SMILES)": "C[C@@H]1CN(C(=O)c2ccc(NC(=O)c3cc(O[C@H](C)c4c(Cl)ccc(F)c4Cl)c(N)nn3)cc2)C[C@H](C)N1", "target or system": "NCI-H2228 (EML4-ALK variant 3)", "test": "cell viability", "measurement": "Emax", "value": "27.6%"}
{"Structure (SMILES)": "Cc1cc(Nc2ncc(Cl)c(Nc3ccccc3S(=O)(=O)C(C)C)n2)c(OC(C)C)cc1C1CCNCC1", "target or system": "CLB-GE", "test": "LC-MS/MS phosphoproteomics, refers to: A2M phosphorylation", "setting": "200 nM, 60 min", "scale": "reference: untreated", "measurement": "log2 fold change", "value": 0.0119}
{"Structure (SMILES)": "C[C@]12CC[C@@H]3c4ccc(O)cc4CC[C@H]3[C@@H]1CC[C@@H]2OC(=O)CCC1CCCC1", "target or system": "MCF-10A", "test": "CellTiter-Glo", "setting": "concentration not given", "scale": "reference: normalised luminescence", "measurement": "viability", "value": "100%"}
{"Structure (SMILES)": "CC(C)(c1ccc(O)cc1)c1ccc(O)cc1", "target or system": "HepG2 spheroids", "test": "Hoechst flow cytometry", "setting": "1 µM, 24 h", "measurement": "G2 phase cells", "value": "20.7 ± 4.07%"}
{"Structure (SMILES)": "C#C[C@@]1(O)[C@@H](CO)O[C@@H](n2cc(Cl)c3c(N)ncnc32)[C@@H]1O", "target or system": "NCI60 panel", "test": "cell viability", "setting": "mean over panel", "measurement": "LC50", "value": "-4.16 log M and -4.25 log M"}
{"Structure (SMILES)": "CC(C)NCC(O)c1ccc(O)c(O)c1 (stereo not shown)", "target or system": "mouse ventricular cardiomyocytes", "setting": "dose not given, 0.287 s", "measurement": "sarcomere length", "value": "1.8 µm"}
{"Structure (SMILES)": "Cc1ccc(Cn2cc(COc3cccc(Cc4cnc(NC(=O)CSc5nc(C)cc(C)n5)s4)c3)nn2)cc1", "target or system": "PC-3M-luc", "test": "colony formation, colony forming", "setting": "10 µM", "measurement": "inhibition", "value": "28 ± 7.6%"}
{"Structure (SMILES)": "CC/C(=N\\NC(=O)C(C)Nc1ccccc1)c1ccc(O)c(C)c1O (stereo not shown)", "target or system": "SK-OV-3", "test": "Western blot, refers to: phospho-YAP", "setting": "10 µM, 6 h, 3D gellan gum culture, unit not given", "scale": "reference: total YAP", "measurement": "protein level", "value": "0.32 ± 0.19"}
{"Structure (SMILES)": "O=C(/C=C/C=C/C=C/C1CCCCC1)NC1=C[C@@](O)(/C=C/C=C/C=C/C(=O)NC2=C(O)CCC2=O)[C@@H]2O[C@@H]2C1=O", "target or system": "SK-HEP1", "test": "cell growth, CellTiter-Glo", "setting": "78 h", "measurement": "GI50", "value": "18.5 µM"}
{"Structure (SMILES)": "CCn1cc(-c2cc(Cn3ccoc3=N)cc3c2CCN([C@@H](C)c2cc(OC)ccn2)C3=O)c(C(F)(F)F)n1", "target or system": "SK-HEP1", "test": "cell growth, inhibitor", "setting": "120 h", "measurement": "EC50", "value": "0.541 µM"}
{"Structure (SMILES)": "O=C(O)c1cc(N2N=C(C(F)(F)F)/C(=C/c3ccc(-c4ccccc4)o3)C2=O)ccc1Cl", "target or system": "platelets", "setting": "concentration not given, added: A23187", "measurement": "Ca2+ release and influx", "value": "decreased"}
{"Structure (SMILES)": "CCCCc1oc2ccccc2c1C(=O)c1cc(I)c(OCCN(CC)CC)c(I)c1", "target or system": "human embryonic stem cell aggregates", "test": "microarray", "setting": "4 µM, 120 h, fold change above 1.5", "measurement": "down-regulated genes number", "value": 323}
{"Structure (SMILES)": "Cn1cncc1C1=CN(c2ncnc3[nH]cnc23)CCS1", "target or system": "MDA-MB-231/ATCC", "measurement": "TGI", "value": "144 µM"}
{"Structure (SMILES)": "Cn1cc(-c2ccc(-c3cncc(Cl)c3N3CCC4(CCNC4=O)CC3)cc2)cn1", "target or system": "COLO 205", "test": "gene expression, microarray, refers to: ISG20 mRNA", "setting": "concentration not given, 6 h", "scale": "reference: untreated cells", "measurement": "log2 fold change", "value": 2.93}
{"Structure (SMILES)": "O=C(O)Cc1ccccc1Nc1c(Cl)cccc1Cl", "target or system": "HepG2", "test": "high content imaging, refers to: nuclear size", "setting": "24 h, distribution mode 1", "measurement": "point of departure", "value": "209 µM and 138 µM"}
{"Structure (SMILES)": "C=CCn1c(=O)c2cnc(Nc3ccc(N4CCN(C)CC4)cc3)nc2n1-c1ccc2c(n1)[C@@](O)(CC)CC2", "target or system": "Kuramochi", "test": "flow cytometry, refers to: pHH3-γH2Ax-", "setting": "concentration not given", "measurement": "G2/M cells in subpopulation", "value": "83.1%"}
{"Structure (SMILES)": "Cc1cc(CN)cc(C)c1NC(=O)c1ccc(-c2cc(Cl)ccc2Cl)o1", "target or system": "Toxoplasma gondii", "test": "parasite growth", "system": "HFF, bradyzoite, glutamine-induced", "measurement": "EC50", "value": "11 µM"}
{"Structure (SMILES)": "CC(=O)c1nn(-c2ccccc2Cl)/c(=N/N=C(\\C)c2ccc(NC(=O)c3ccccc3)cc2)s1", "target or system": "MCF7", "test": "MTT", "setting": "10 µM", "measurement": "cytotoxicity", "value": "94.2%"}
{"Structure (SMILES)": "CCCCCCNc1nc(NC2CCN(C)CC2)c2cc(OC)c(OC)cc2n1", "target or system": "Toxoplasma gondii", "test": "parasite growth, luciferase reporter", "system": "HFF host cells, tachyzoites", "setting": "72 h", "measurement": "EC50", "value": "2.46 µM"}
{"Structure (SMILES)": "NC(N)=NC(=O)c1nc(Cl)c(N2CCCCCC2)nc1N", "target or system": "human neutrophils", "setting": "10 µM, pHo 6.70, added: 100 mM sulfate", "measurement": "intracellular acidification", "value": "no effect"}
{"note": "A few entries again:"}
{"Structure (SMILES)": "COc1cnc2cccc(N3CCc4c(cc(Cn5ccnc5C)cc4-c4cn(C)nc4C(F)(F)F)C3=O)c2c1", "target or system": "SBC-5", "test": "cell growth, inhibitor", "setting": "120 h", "measurement": "EC50", "value": "2.35 µM"}
{"Structure (SMILES)": "C=CCn1c(=O)c2cnc(Nc3ccc(N4CCN(C)CC4)cc3)nc2n1-c1ccc2c(n1)[C@@](O)(CC)CC2", "target or system": "Kuramochi", "test": "flow cytometry, refers to: pHH3-γH2Ax-", "setting": "concentration not given", "measurement": "G2/M cells in subpopulation", "value": "83.1%"}
{"Structure (SMILES)": "CC/C(=N\\NC(=O)C(C)Nc1ccccc1)c1ccc(O)c(C)c1O (stereo not shown)", "target or system": "SK-OV-3", "test": "Western blot, refers to: phospho-YAP", "setting": "10 µM, 6 h, 3D gellan gum culture, unit not given", "scale": "reference: total YAP", "measurement": "protein level", "value": "0.32 ± 0.19"}
